Results of several laboratories.
Every numbered part comes from another study and shows a few of its results, in no order. Changes are numbered by the printed parent chain.

Block 1
Target: RNA binding protein fox-1 homolog 2, RRM domain, GST-SBP tag (RBFOX2, Homo sapiens, UniProt O43251-10, residues 100-194)
Technique: RNA Bind-n-Seq
Form: RNA
Sample: in vitro
Concentration: 365 nM
Notes: natural RNA segment, single round, ends assumed
Reference: no-protein control
Reading: higher = stronger binding
Constant ends, left off below: GGGAGUUCUACAGUCCGACGAUC … UGGAAUUCUCGGGUGCCAA
Target sequence (chain): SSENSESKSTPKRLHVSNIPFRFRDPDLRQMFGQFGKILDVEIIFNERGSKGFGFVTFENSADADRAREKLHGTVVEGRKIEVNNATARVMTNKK
Strand | RBNS enrichment (R)
UUGUUCACUAUCAGUCUGGAGUGACUCUAUCUCCAGCAGUGCUCCCUGAGUGGCAGUGUUCCCUCAUCCACCCUGUUGCCCCUUAGCUAGAAGCUGUAAUGGAUGCUCUU | 0.368
GGGGAUCGCCAUAUGGACCACCUGGUUGACAGACGGCUUCUUGCUUGCCUGGGCCUUCUGCCUUAUACUUUGGGAUAAAUGGGGUGUAGGGGAUAUAUUCACUACUUUGG | 0.927
GGUUAGUAGCUACUCCCCGAGGCCCCAACCCGGGAAAUACUGCAGUGUUCCUUCCUGCAGGCCUUGGAGCCCUGACCAGGCCAGUCCUGGGCACUGCUUAGAUGGCUGUU | 0.157
UUAUUUUUCAUUGUGUUUUGUGACCUCAGCAGGGUGGGGGUCUUCCUCCUUACUCUAAGCUAAAUCUAGGUGAGGUUUCCCCUUAGGGAGCCCAGCUAUUUACAAAGUAC | 0.373
GAAACUCAAUGUUUUUUUAAGUUUUGUUUUCCCUUUAAAGCCUUUUUUUAGGCCACAUUGACAGUGGUGGGCGGGGAGAAGAUAGGGAACACUCAUCCCUGGUCGUCUAU | 0.46
AGAGAAGUAUGUGUUUGUUUUUAACAUGAUGCUAGUUAGAGAACAGUCUUAUCAGCAAAUUACUCUGGCCACUCUUGGAGCUAGAUAUUUUCCAAAUUUUCUCUGAAGGU | 0.537
GCACAUAUAAUUUUUUUUUAAUUUAUGAUCCAUUUUGUAUGGUCUCAAAGUUGGAUGACCUCAUUACUAAUAUUUGUUGUAAAAGUGAAACUUGUUUGCCAACCAAUAAA | 0.709
AUUUUUAAGAGCUGAAGCUCCCUCUUGCCCUUCUUGUCUACUCCUCACUGCCAGUUGGGGCCUAGGCUUAGUCCUGGGCAAAUGUCCAUGAUCUUGCUGCUGUAGGAAGC | 0.409

Block 2
Target: Runt-related transcription factor 1, full length (RUNX1, Homo sapiens, UniProt Q01196-8, residues 1-480)
Technique: protein-binding microarray
Form: hairpin DNA
Sample: in vitro
Concentration: not given
Notes: whole hairpin DNA, median over replicate spots
Reference: not given
Reading: higher = stronger binding
Strand | median fluorescence
GAGGCCTCGCGCGGTTGGCCTCCTGGCCAACCGCGCGAGGCCTCACACTC (5mC at 8) | 2340 a.u.
GAGGCCTGTCGCGGTTGGCCTCCTGGCCAACCGCGACAGGCCTCACACTC (5mC at 12 32) | 1760 a.u.
GAGGCCTGTTGCGCGTGGCCTCCTGGCCACGCGCAACAGGCCTCACACTC | 1870 a.u.
GAGGCCTGTCGCGGTTGGCCTCCTGGCCAACCGCGACAGGCCTCACACTC (5mC at 37) | 2620 a.u.
GGGGCCTGTCGCGGTTGGCCTCCTGGCCAACCGCGACAGGCCCCACACTC (5mC at 43) | 3110 a.u.
GAGGCCTGTTGTCGTTGGCCTCCTGGCCAACGACAACAGGCCTCACACTC (5mC at 13) | 1710 a.u.
GAGGCCTTTTGCGGTTGGCCTCCTGGCCAACCGCAAAAGGCCTCACACTC | 7670 a.u.
GAGGCCCACGCGCAACAGCCTCCTGGCTGTTGCGCGTGGGCCTCACACTC (5mC at 9) | 1840 a.u.
GAGGCCTGTCGCGGTTGGCCTCCTGGCCAACCGCGACAGGCCTCACACTC (5mC at 5) | 2590 a.u.
GAGGCCTGTTGCGGGTGGCCTCCTGGCCACCCGCAACAGGCCTCACACTC (5mC at 30) | 2110 a.u.
CTCAGTTCTGTGGGCGGGACTCCTGTCCCGCCCACAGAACTGAGACACTC | 2290 a.u.

Block 3
Target: Sal-like protein 4, full length isoform A (SALL4, Homo sapiens, UniProt Q9UJQ4, residues 1-1053)
Chain of UniProt Q9UJQ4 (whole entry, looked up): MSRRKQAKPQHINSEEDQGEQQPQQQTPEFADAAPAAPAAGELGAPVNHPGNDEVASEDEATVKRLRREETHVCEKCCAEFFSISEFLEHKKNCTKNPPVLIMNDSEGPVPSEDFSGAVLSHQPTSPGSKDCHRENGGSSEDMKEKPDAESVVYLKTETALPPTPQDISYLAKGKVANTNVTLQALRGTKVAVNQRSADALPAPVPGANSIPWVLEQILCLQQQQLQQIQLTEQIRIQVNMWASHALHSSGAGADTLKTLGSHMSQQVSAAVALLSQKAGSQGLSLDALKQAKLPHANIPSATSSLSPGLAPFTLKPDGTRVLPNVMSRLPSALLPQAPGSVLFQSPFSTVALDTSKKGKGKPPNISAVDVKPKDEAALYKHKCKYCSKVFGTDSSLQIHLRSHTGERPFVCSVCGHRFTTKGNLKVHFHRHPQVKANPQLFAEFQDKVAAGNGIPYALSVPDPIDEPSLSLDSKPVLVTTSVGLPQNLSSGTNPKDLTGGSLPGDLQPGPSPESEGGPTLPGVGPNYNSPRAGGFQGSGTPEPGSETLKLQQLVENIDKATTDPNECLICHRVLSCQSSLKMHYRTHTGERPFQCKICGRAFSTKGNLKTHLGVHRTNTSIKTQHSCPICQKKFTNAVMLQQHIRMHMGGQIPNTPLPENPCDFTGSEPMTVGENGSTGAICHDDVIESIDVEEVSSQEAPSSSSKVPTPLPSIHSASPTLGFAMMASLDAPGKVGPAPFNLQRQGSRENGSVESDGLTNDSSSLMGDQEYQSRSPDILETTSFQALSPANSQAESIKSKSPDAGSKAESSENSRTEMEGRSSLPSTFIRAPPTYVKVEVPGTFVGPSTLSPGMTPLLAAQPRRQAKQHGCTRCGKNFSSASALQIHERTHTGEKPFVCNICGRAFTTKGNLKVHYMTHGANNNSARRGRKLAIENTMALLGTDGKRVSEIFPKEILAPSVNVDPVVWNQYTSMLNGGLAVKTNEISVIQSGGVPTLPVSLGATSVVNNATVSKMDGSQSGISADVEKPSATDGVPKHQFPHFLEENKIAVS
Technique: universal PBM
Form: double-stranded DNA, one strand shown
Sample: in vitro
Concentration: 600 nM
Notes: 8-mer, flanks averaged, mean of replicates
Reading: higher = stronger binding
Strand | E-score
AAGGGTAG | -0.0508
CCAACGAA | -0.155
GGCTTCAC | -0.151
CTTTCCTA | 0.0377
CAGCTATC | -0.0934
CCAATTGA | 0.161
ATTGGCGG | 0.00356
GTCGAAAC | -0.119
GCAGAGCA | -0.1
CTCGGCGA | -0.205
GGCGGGGA | 0.0202
GAGATTGC | -0.185
CGAACGTA | -0.0445
CGTAGGAC | -0.249
GAGCGGAA | -0.0634
ACGGAGAG | -0.137
CACACAAC | 0.0371

Block 4
Target: CREB3L2, bZIP domain (human)
Technique: DHFR protein complementation
Sample: yeast
Notes: single substitutions, most at no-binding floor
Reference: wild-type JUN-FOS pair
Reading: higher = stronger binding
Parent: JUN, bZIP domain (human); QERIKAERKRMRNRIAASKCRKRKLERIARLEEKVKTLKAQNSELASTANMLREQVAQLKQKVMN; partner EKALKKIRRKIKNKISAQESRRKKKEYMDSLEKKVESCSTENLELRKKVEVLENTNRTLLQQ
Substitution | binding fitness
L38N | -1.53 natural log
E32A | -1.47 natural log
Q55Y | -1.51 natural log
Q41R | -1.34 natural log
I28R | -1.47 natural log
A49S | -1.52 natural log
R30N | -1.11 natural log
V35W | -1.47 natural log
Q41E | -1.35 natural log
E54P | -1.51 natural log
Q41V | -1.38 natural log
T48V | -1.5 natural log
T37Y | -1.61 natural log
R30T | -1.37 natural log
K39M | -1.39 natural log
L31M | -1.22 natural log
Q41K | -1.46 natural log
L45W | -1.43 natural log
E33V | -1.55 natural log
S47H | -1.4 natural log
Q55S | -1.49 natural log
V35G | -1.49 natural log
V56D | -1.56 natural log
K34F | -1.43 natural log

Block 5
Target: Histone acetyltransferase KAT6A, winged helix 2, GST fusion (KAT6A, Homo sapiens, UniProt Q92794, residues 85-181)
Technique: protein binding microarray
Form: double-stranded DNA, one strand shown
Sample: in vitro
Concentration: not given
Notes: 8-mer, flanks averaged, mean of 2 arrays, mostly near background
Reference: not given
Reading: higher = stronger binding
Target sequence (chain): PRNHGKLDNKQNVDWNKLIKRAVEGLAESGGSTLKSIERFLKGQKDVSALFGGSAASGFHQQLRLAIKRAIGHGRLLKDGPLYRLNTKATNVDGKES
Strand | E-score
TAGTGATA | -0.145
AGTATTGC | -0.00988
CACTTCGC | 0.0828
ACAGTTGC | -0.102
CCAATGCG | -0.051
GCAGCGCC | 0.155
CGTCCAAC | -0.0269
ACCGCTTC | 0.0147
CTTCGGAA | 0.234
CGCGTGAG | 0.24
GAAATCGC | 0.168
AGTAACGA | 0.0025
GCTGTACA | -0.0672
CACTATGC | -0.0121
CCCGGGCA | 0.187
GACACCTC | -0.0283
ATGCAATC | 0.0594
CAGAACAG | -0.0141
GCCGATTA | 0.136
CACGCGTC | -0.063
CAACCCGC | 0.1
